# Published values from different studies.
# Lines come from different studies, so protocols differ.
# Cell line: THP-1
SMILES,test,test system,conditions,how to read,endpoint,value
C(=C/c1ccccc1)/c1ccccc1,"apoptosis, measured: caspase-3 activity",,"24 h, lowest dose with significant induction",relative to: vehicle,lowest effective concentration,50 µM
CC(C)C[C@H](NC(=O)[C@H](CO)NC(=O)[C@H](CCCNC(=N)N)NC(=O)[C@H](CCCCN)NC(=O)[C@@H](NC(=O)[C@@H](NC(=O)CNC(=O)[C@H](CCCNC(=N)N)NC(=O)[C@H](Cc1c[nH]cn1)NC(=O)[C@H](Cc1c[nH]c2ccccc12)NC(=O)[C@H](Cc1ccccc1)NC(=O)[C@H](Cc1c[nH]cn1)NC(=O)[C@H](Cc1ccc(O)cc1)NC(=O)[C@@H](N)Cc1ccc(O)cc1)C(C)C)[C@@H](C)O)C(=O)N[C@@H](CO)C(=O)N1CCC[C@H]1C(=O)N[C@@H](Cc1c[nH]cn1)C(=O)N[C@@H](CCCNC(=N)N)C(=O)N1CCC[C@H]1C(=O)N[C@@H](CCCNC(=N)N)C(=O)N[C@@H](Cc1c[nH]cn1)C(=O)N[C@@H](CO)C(=O)N[C@@H](CCCNC(=N)N)C(=O)O,"TNF-α secretion, ELISA",,"30 µM, 4 to 12 h, together with: LPS",,inhibition,50%
Oc1ccccc1C1Nc2ccccc2C2=[O+][Cu-2]3([Cl])[O]c4ccccc4C=[N+]3N21 (stereo not shown),"cell growth or viability, CCK-8",,,,IC50,300 nM
CC1CC(=O)N(CCCCN)N=C1c1ccc(NC(=O)N2Cc3ccncc3C2)cc1 (stereo not shown),"cell growth or viability, ATP luminescence",,,,IC50,1.4 nM
CC(C)C[C@@H]1NC(=O)[C@H](CC(C)C)NC(=O)[C@H](Cc2ccccc2)NC(=O)[C@@H]2CSSC[C@@H](C(=O)O)NC(=O)[C@H](CSSC[C@H](N)C(=O)N3CCC[C@H]3C(=O)N2)NC(=O)CNC1=O,cell adhesion,,"60 min, together with: LLG-C4-GST substratum",,IC50,20000 nM
NCCCCCCN1N=C(c2ccc(NC(=O)N3Cc4ccncc4C3)cc2)CC(c2cccc3ncccc23)C1=O (stereo not shown),"cell growth or viability, ATP luminescence",,,,IC50,< 0.003 nM
COc1cc(/C=N/N2C(=O)c3ccccc3NC2c2cc(OC)c(O)c([N+](=O)[O-])c2)cc([N+](=O)[O-])c1O (stereo not shown),"cell growth or viability, CCK-8",,24 h,,IC50,> 50000 nM
CCOC(=O)c1c(C(=O)OC)cn(CC(c2cn(C)c3ccccc23)c2cn(C)c3ccccc23)c1C,"cell growth or viability, MTS",,"200 µM, 72 h",,inhibition,2%
Nc1nc2c(ncn2[C@@H]2O[C@@H]3COP(=O)(O)O[C@H]4[C@@H](F)[C@H](n5cnc6c(N)ncnc65)O[C@@H]4CSP(=O)(O)O[C@@H]2[C@@H]3O)c(=O)[nH]1,measured: CXCL10,,"10 µM, 24 h",relative to: untreated,mRNA level,~100 fold
CC1CC(=O)N(CCCCCCN)N=C1c1ccc(NC(=O)N2Cc3ccncc3C2)cc1 (stereo not shown),"cell growth or viability, ATP luminescence",,,,IC50,0.0045 nM
O=C1c2ccccc2NC(c2ccc([N+](=O)[O-])cc2)N1/N=C/c1ccc([N+](=O)[O-])cc1 (stereo not shown),"cell growth or viability, CCK-8",,24 h,,IC50,> 50000 nM
COc1ccc(-c2cc(=O)c3c(O)c(OC)c(O)c(OC)c3o2)cc1O,"antioxidant effect, OPT fluorometric glutathione, measured: GSH/(GSH + GSSG)",cell extract,,"relative to: 1 = all glutathione reduced, higher = more antioxidant",Emax of redox index,0.95
O=C1c2ccccc2NC(c2ccccc2O)N1/N=C/c1ccccc1O (stereo not shown),"cell growth or viability, CCK-8",,24 h,,IC50,9800 nM
COc1cc(O)cc(O)c1C(=O)/C=C/c1ccccc1,"antioxidant effect, OPT fluorometric glutathione, measured: GSH/(GSH + GSSG)",cell extract,,"relative to: 1 = all glutathione reduced, higher = more antioxidant",Emax of redox index,0.84
COc1cc(/C=N/N2C(=O)c3ccccc3NC2c2ccc(O)c(OC)c2)ccc1O (stereo not shown),"cell growth or viability, CCK-8",,24 h,,IC50,> 50000 nM
CC1CC(=O)N(CCCCCN)N=C1c1ccc(NC(=O)N2Cc3ccncc3C2)cc1 (stereo not shown),"cell growth or viability, ATP luminescence",,,,IC50,0.023 nM

# Repeated from above:
SMILES,test,test system,conditions,how to read,endpoint,value
CC(C)C[C@@H]1NC(=O)[C@H](CC(C)C)NC(=O)[C@H](Cc2ccccc2)NC(=O)[C@@H]2CSSC[C@@H](C(=O)O)NC(=O)[C@H](CSSC[C@H](N)C(=O)N3CCC[C@H]3C(=O)N2)NC(=O)CNC1=O,cell adhesion,,"60 min, together with: LLG-C4-GST substratum",,IC50,20000 nM
NCCCCCCN1N=C(c2ccc(NC(=O)N3Cc4ccncc4C3)cc2)CC(c2cccc3ncccc23)C1=O (stereo not shown),"cell growth or viability, ATP luminescence",,,,IC50,< 0.003 nM
